Experimental data from different studies.
Numbered parts are unrelated; each lists some results of a single study.

Set 1
Target: Interferon regulatory factor 7, full length, phosphomimetic (IRF7, Homo sapiens, UniProt Q92985, residues 1-503, S101K/S471D/S472D/S475D/S476D/S477D/S483D/S484D/S487D)
Sequence of UniProt Q92985 (whole entry, unmodified, looked up): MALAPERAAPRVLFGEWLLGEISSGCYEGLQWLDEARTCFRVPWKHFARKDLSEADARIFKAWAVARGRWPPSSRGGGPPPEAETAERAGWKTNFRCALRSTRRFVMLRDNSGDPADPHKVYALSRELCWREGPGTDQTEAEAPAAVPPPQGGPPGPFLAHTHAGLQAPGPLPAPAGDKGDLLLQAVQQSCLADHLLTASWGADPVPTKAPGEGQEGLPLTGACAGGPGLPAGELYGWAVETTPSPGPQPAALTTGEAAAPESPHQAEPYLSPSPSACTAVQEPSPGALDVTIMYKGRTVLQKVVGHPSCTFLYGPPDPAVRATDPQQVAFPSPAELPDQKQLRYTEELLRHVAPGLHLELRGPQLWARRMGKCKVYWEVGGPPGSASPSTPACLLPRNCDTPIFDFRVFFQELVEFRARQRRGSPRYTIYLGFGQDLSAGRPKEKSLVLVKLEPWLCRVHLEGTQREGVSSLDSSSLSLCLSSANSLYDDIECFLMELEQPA
Method: protein-binding microarray
Molecule type: double-stranded DNA, one strand shown
Sample: in vitro
Tested at: 250 nM
Setting: 60-bp whole probe
Added: salmon DNA 0.4 mg/ml
Reference: random background probes
Direction: higher = stronger binding
All sequences stand within: GCCTAGCAC … GTCTTGATTCGCTTGACGCTGCTG
Strand	log fluorescence [z-score]
AAGTTTATACCTTAGGTTTTGTGCTAG	0.254
GACGATCTCAGACCGGAGACGTGCTAG	-0.221
AGAAACTGTGAGGAGGGGAAGTGCTAG	-0.115
TTAAATTTCGGGTTTCGATTAGTGCTA	8.85
GACGATATCATTCTCGAGACGTGCTAG	0.242
TCATTTCTACTGTCTGTTACTGTGCTA	1.58
GACGGACTGGCTTTCGGGACGTGCTAG	-0.539
TTCGGTTTCGGGTATCGGTTAGTGCTA	8.37
GACTGTTTCGGGTTTCGGGACGTGCTA	7.13
GACGGACTGGGCTATCGGGACGTGCTA	-0.831
TTAGATATCTTTTTCCTAATGTGCTAG	1.38
TTAAGTTTCGGTTTCGGTTAGTGCTAG	14.9
GCACTCTTCTTTTTTTTCTTGTGCTAG	0.965
TTAGGACTGTACACTGGGTTAGTGCTA	-0.416
GACGGTCTCGGTATCGGGCCGTGCTAG	1.34
GACGATCTCAGTATCTAGACGTGCTAG	-0.379
TTAGATTCCAGGTTCGATTAGTGCTAG	3.35
GACGGTATCGGGTTTAGGGACGTGCTA	1.07
TCATGCTTTCTTTTATGACTGTGCTAG	0.333

Set 2
Target: Sal-like protein 4, full length isoform A (SALL4, Homo sapiens, UniProt Q9UJQ4, residues 1-1053)
Sequence of UniProt Q9UJQ4 (whole entry, looked up): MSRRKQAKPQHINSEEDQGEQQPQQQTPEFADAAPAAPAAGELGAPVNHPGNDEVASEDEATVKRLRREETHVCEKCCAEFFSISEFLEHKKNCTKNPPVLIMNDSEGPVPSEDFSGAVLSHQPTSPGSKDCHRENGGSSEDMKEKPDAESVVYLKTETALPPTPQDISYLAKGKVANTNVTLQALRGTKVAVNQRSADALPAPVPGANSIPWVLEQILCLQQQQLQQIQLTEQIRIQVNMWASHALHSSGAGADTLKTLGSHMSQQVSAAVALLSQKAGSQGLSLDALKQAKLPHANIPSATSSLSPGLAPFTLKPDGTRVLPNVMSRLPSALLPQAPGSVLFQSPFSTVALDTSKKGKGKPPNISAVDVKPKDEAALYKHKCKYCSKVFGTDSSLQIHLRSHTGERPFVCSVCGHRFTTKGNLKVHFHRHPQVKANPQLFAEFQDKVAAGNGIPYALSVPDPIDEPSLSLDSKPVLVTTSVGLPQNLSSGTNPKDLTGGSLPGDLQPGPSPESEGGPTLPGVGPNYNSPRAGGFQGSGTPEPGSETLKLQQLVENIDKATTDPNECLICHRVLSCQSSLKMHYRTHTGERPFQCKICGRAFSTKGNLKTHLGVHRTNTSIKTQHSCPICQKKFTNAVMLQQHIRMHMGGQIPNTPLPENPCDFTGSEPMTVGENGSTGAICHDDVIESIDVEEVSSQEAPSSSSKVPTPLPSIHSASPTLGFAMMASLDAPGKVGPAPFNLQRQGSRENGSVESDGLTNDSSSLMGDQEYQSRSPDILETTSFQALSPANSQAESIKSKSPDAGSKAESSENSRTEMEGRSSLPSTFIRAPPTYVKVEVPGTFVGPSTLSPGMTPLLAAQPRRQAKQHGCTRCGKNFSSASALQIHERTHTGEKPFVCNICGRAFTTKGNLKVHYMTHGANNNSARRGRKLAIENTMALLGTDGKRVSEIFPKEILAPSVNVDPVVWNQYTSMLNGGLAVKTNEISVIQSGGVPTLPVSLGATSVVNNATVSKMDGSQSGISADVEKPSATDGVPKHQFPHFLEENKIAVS
Method: universal PBM
Molecule type: double-stranded DNA, one strand shown
Sample: in vitro
Tested at: 600 nM
Setting: 8-mer, flanks averaged, mean of replicates
Direction: higher = stronger binding
Strand	E-score
CTTATATC	0.321
CCAAACTC	-0.119
AAGCAGAT	0.0414
CCAGGGGG	-0.351
CCAGTTCC	-0.241
AGGCAAAG	0.0933
GATGCTTA	0.0514
AAGATAGC	0.0985
CCCTGCAG	-0.231
ACTCAGAT	0.0946
AAATCGTA	0.29
CTTCAGAA	0.0527
AGTATGTG	0.128
CTAGCAAC	0.0227
AATGTGGC	-0.0904
AGCGAAAA	0.0828
ATACCTTG	0.175
CTTACGGC	-0.193
AACTTCAG	0.0774
ACGCAGCT	-0.202
AGCAAAAA	0.255
ATTAGTAC	0.22
CTACAACC	0.0302
AGGCTGGC	-0.303
TAGCGCAA	0.157

Set 3
Target: Prothrombin, mature alpha-thrombin (F2, Homo sapiens, UniProt P00734)
Method: aptamer microarray, sandwich
Molecule type: DNA with 2'F-ANA
Sample: in vitro
Tested at: 200 nM
Setting: whole 15-mer aptamer, many near background
Added: Cy3 exosite-II aptamer, 400 nM
Direction: higher = stronger binding
Strand: GGTTGGTGTGGTTGG
Modification	mean fluorescence intensity
2'F-ANA at 2 3 4 9 10 11 12 13 14	176 a.u.
2'F-ANA at 7 8 9 11 13 14 15	187 a.u.
2'F-ANA at 2 3 4 5 10 12 13 14	45.8 a.u.
2'F-ANA at 1 2 4 8 9 10 15	53.5 a.u.
2'F-ANA at 2 5 6 7 9 12 13 14 15	47.1 a.u.
2'F-ANA at 4 6 14 15	147 a.u.
2'F-ANA at 1 3 4 6 8 9 11 12 13	256 a.u.
2'F-ANA at 1 2 3 4 5 7 8 9 10 12	49.4 a.u.
2'F-ANA at 3 4 7 9 10 13 15	280 a.u.
2'F-ANA at 2 3 5 7 8 9 10 11 15	53.1 a.u.
2'F-ANA at 1 2 4 6 8 11 13 14	68.1 a.u.
2'F-ANA at 5 7 8 12	205 a.u.
2'F-ANA at 1 5 6 8 9 10 12 13 14 15	81 a.u.
2'F-ANA at 4 6 8 9 10 11 13	63.6 a.u.
2'F-ANA at 1 2 4 7 8 11 12 13 15	189 a.u.
2'F-ANA at 2 5 7 10 14	47.6 a.u.
2'F-ANA at 2 3 5 6 7 9 10 11 13 14	63.9 a.u.
2'F-ANA at 1 2 3 6 8 10 12 14 15	53.2 a.u.
2'F-ANA at 1 2 3 6 7	176 a.u.
2'F-ANA at 3 4 6 7 9 10 12 14	169 a.u.
2'F-ANA at 1 2 5 8 10 12 13 14 15	91 a.u.
2'F-ANA at 1 3 5 8 9 12 13 14	47.7 a.u.

Set 4
Target: Histone acetyltransferase KAT6A, winged helix 2, GST fusion (KAT6A, Homo sapiens, UniProt Q92794, residues 85-181)
Method: protein binding microarray
Molecule type: double-stranded DNA, one strand shown
Sample: in vitro
Tested at: not given
Setting: 8-mer, flanks averaged, mean of 2 arrays, mostly near background
Reference: not given
Direction: higher = stronger binding
Residues (chain): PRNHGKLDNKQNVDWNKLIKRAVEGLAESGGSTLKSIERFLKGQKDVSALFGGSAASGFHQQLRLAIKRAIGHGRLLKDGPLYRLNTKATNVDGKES
Strand	E-score
ACTATCTA	-0.0261
CTATGAAC	0.123
CACTATCA	-0.148
CGGAAGCA	0.196
CGGGTACC	0.102
CGGTAAAC	-0.14
CAGGGAGA	0.0178
AGGCACCT	-0.0704
CGCCCACG	0.0754
AATCACCA	0.0345
GGCGCAAA	0.178
TAACCAAA	-0.013
AACCCTAA	0.0259
CAATCGCC	-0.00115
CTACTGAG	-0.087
GTCTCCCA	-0.151
GATCGCAC	-0.00365
GTCCCATA	-0.124
AAACCCTC	0.00611
AGGATCAG	-0.181

For quick reference, copied from above (set 1):
Strand	log fluorescence [z-score]
TTAGATATCTTTTTCCTAATGTGCTAG	1.38
GACGATCTCAGACCGGAGACGTGCTAG	-0.221
TCATTTCTACTGTCTGTTACTGTGCTA	1.58
GACGGACTGGCTTTCGGGACGTGCTAG	-0.539
TCATGCTTTCTTTTATGACTGTGCTAG	0.333
TTCGGTTTCGGGTATCGGTTAGTGCTA	8.37
TTAAGTTTCGGTTTCGGTTAGTGCTAG	14.9
